Measurements pooled from the literature.
Each numbered part is a random draw from the data of one study; scales do not carry over between parts.
Chain of UniProt O14965 (whole entry, looked up): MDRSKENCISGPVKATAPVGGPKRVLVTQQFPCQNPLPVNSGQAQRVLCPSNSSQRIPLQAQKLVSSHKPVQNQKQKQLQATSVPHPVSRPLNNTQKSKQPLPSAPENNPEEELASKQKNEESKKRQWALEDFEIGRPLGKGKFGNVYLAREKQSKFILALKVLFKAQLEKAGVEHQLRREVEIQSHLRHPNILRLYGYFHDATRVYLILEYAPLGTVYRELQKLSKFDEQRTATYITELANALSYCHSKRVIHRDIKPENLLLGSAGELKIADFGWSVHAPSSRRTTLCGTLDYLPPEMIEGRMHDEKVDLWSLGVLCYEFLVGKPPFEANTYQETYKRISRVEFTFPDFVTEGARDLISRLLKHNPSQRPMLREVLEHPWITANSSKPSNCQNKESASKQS
Chain of UniProt Q9H422 (whole entry, looked up): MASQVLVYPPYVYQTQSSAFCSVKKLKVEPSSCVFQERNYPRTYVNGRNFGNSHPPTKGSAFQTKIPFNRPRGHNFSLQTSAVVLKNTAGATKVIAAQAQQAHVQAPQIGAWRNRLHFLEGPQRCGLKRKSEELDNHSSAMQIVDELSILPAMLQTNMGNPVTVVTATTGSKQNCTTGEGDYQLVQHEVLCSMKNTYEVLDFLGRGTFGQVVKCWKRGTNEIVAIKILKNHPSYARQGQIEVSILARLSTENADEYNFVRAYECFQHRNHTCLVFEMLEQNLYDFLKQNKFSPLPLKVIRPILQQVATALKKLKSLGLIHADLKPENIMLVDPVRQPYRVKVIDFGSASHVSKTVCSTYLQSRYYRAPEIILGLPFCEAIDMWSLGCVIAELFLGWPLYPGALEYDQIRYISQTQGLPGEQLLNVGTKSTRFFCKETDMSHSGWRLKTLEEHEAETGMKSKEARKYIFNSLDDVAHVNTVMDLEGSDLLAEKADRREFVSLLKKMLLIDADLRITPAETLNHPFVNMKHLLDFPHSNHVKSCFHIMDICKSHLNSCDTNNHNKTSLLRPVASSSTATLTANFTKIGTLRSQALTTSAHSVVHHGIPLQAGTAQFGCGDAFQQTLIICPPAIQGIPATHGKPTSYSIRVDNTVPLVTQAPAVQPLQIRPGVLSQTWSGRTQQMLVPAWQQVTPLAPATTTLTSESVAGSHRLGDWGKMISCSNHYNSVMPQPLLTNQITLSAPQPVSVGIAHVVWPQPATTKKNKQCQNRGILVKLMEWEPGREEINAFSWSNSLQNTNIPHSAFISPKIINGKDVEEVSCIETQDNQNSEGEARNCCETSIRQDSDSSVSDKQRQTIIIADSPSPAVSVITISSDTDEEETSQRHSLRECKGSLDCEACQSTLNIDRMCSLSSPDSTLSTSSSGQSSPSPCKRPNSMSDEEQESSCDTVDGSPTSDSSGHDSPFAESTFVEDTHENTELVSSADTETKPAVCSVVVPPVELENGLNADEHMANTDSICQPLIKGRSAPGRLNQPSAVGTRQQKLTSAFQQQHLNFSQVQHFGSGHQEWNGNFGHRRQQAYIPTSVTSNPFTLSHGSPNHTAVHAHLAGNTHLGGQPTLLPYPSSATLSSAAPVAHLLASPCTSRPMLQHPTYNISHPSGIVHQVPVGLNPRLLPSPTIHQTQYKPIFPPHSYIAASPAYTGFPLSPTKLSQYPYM
Chain of UniProt P41279 (whole entry, looked up): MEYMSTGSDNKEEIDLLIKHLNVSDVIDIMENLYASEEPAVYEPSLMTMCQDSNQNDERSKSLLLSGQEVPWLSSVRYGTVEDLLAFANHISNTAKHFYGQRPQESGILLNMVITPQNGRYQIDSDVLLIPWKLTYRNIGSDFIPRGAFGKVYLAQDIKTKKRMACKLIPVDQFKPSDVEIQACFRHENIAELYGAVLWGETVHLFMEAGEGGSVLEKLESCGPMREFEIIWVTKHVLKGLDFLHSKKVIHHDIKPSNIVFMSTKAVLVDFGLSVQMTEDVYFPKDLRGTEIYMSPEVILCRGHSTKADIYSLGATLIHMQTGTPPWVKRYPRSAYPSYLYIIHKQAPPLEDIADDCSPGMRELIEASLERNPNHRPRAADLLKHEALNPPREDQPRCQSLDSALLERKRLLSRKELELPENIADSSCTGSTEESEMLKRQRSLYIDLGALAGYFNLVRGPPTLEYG
Chain of UniProt Q09013 (whole entry, looked up): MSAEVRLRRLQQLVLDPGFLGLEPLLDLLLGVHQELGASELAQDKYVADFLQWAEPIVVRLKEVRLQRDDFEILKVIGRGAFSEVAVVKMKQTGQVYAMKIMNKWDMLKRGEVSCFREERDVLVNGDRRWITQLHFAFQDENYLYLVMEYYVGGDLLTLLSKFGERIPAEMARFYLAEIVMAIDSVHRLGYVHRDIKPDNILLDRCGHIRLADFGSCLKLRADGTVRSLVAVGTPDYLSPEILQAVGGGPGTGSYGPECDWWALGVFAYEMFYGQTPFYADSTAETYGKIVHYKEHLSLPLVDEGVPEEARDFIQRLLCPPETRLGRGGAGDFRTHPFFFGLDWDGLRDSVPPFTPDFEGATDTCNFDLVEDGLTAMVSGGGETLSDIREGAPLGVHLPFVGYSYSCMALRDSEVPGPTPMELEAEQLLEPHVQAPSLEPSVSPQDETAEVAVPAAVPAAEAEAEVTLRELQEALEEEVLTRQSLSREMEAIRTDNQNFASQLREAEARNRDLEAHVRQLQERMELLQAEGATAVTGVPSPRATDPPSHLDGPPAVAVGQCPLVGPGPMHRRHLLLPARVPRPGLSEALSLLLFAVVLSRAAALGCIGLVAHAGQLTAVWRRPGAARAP
Chain of UniProt P50613 (whole entry, looked up): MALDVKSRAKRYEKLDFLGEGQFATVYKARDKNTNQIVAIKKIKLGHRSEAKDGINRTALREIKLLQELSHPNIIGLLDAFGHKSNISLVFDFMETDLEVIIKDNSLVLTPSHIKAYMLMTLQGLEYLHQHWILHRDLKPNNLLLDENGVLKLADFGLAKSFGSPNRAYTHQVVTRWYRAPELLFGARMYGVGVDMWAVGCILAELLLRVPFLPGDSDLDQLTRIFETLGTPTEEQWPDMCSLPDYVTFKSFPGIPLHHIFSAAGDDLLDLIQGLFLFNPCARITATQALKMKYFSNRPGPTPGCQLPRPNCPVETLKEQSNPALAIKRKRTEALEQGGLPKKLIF

Block 1
Compound: COc1ccc2c(c[n+](C)c3c4cc5c(cc4ccc23)OCO5)c1OC
Effect on: enzyme activity
Action: inhibitor
Tested at: 0.5 µM
Relative to: control
target | remaining activity
MAP3K8 (Homo sapiens, UniProt P41279) | 91.3%
CDK7 (Homo sapiens, UniProt P50613) | 91.9%
ROS1 (Homo sapiens, UniProt P08922) | 119%
DMPK (Homo sapiens, UniProt Q09013) | 100%
HIPK3 (Homo sapiens, UniProt Q9H422) | 96.6%
Aurora kinase A (AURKA, Homo sapiens, UniProt O14965) | 107%

Block 2
Target: UDP-N-acetylglucosamine--peptide N-acetylglucosaminyltransferase 110 kDa subunit (OGT, Homo sapiens, UniProt O15294)
Chain of UniProt O15294 (whole entry, looked up): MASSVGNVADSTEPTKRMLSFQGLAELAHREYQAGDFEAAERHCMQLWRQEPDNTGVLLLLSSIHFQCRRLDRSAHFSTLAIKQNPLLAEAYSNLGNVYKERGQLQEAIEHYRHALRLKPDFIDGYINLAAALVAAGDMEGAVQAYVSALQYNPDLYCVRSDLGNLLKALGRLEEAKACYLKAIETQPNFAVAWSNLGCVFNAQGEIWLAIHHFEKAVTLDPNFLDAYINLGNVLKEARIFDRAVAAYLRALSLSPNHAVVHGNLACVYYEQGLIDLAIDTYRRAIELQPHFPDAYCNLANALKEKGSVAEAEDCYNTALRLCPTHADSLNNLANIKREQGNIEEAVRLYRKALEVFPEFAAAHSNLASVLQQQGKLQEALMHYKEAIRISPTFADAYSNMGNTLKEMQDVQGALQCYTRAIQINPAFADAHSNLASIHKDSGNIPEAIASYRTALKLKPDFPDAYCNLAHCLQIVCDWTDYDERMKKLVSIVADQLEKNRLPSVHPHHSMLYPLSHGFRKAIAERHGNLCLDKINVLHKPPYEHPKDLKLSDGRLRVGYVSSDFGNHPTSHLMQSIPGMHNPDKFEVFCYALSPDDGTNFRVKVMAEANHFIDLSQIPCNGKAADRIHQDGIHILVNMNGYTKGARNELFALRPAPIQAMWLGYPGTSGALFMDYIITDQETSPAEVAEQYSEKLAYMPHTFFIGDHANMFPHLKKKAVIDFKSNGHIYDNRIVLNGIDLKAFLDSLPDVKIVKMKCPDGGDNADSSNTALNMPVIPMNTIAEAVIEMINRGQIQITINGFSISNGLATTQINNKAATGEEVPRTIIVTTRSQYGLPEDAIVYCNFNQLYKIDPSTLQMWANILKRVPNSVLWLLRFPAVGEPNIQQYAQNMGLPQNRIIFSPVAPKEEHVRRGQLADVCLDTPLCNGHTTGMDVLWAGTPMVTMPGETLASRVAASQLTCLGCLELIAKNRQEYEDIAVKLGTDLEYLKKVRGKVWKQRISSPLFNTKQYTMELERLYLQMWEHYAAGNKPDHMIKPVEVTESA
Effect on: binding
Technique: phage display NGS
Molecule type: peptide
Tested at: concentration not given
Relative to: beads alone
Molecule | enrichment fold change
TAPFYPPAYEI | 0.929
TAPFYPPAYFI | 0.689
TAPFYPPAYDI | 0.464

Block 3
Cell line: HEK-293T/ACE2
Tested at: concentration not given
Time: 16 (unit not given)
Relative to: vehicle
Compound | viability
O=C1CCc2cc(OCCCCc3nnnn3C3CCCCC3)ccc2N1 | 99%
CCOC(=O)CCC(=O)O[C@H]1[C@H](O[C@@H]2[C@@H](C)[C@H](O[C@H]3C[C@@](C)(OC)[C@@H](O)[C@H](C)O3)[C@@H](C)C(=O)O[C@H](CC)[C@@](C)(O)[C@H](O)[C@@H](C)C(=O)[C@H](C)C[C@@]2(C)O)O[C@H](C)C[C@@H]1N(C)C | 101%
Cc1cc(-c2ccc(/N=N/c3ccc4c(S(=O)(=O)O)cc(S(=O)(=O)O)c(N)c4c3O)c(C)c2)ccc1/N=N/c1ccc2c(S(=O)(=O)O)cc(S(=O)(=O)O)c(N)c2c1O | 98.3%
CCOC(=O)[C@H](CCc1ccccc1)N[C@@H](C)C(=O)N1CCC[C@H]1C(=O)O | 94.8%
CC(=O)Oc1ccccc1C(=O)O | 90.8%
Nc1ccn([C@H]2CC[C@@H](CO)O2)c(=O)n1 | 95.1%
Cc1ccccc1N1C(=O)c2cc(S(N)(=O)=O)c(Cl)cc2NC1C (centres unmarked) | 101%

Block 4
Target: 5-hydroxytryptamine receptor 1A (HTR1A, Homo sapiens, UniProt P08908)
Chain of UniProt P08908 (whole entry, looked up): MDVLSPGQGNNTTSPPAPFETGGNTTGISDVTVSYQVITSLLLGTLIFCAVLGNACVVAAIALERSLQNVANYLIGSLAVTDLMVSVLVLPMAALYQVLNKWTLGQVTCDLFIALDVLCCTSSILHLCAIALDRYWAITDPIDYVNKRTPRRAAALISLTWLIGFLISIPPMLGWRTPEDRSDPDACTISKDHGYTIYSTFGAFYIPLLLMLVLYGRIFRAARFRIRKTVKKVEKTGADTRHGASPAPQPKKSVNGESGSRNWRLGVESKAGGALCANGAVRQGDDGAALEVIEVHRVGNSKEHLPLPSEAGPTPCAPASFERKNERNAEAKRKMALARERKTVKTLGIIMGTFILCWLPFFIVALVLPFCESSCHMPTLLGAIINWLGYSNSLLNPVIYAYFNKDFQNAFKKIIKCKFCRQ
Effect on: ligand displacement
Tested at: 10 µM
SMILES | inhibition
Cc1ccccc1Oc1cc(-n2c(=O)cc(C(F)(F)F)[nH]c2=O)c2ccccc2c1Cl | 8.88%
O=C(Nc1cnc(Oc2ccc(F)cc2)nc1)N1CCc2ncccc2[C@@H]1c1ccc(F)cc1 | -8.97%
Cc1noc([C@H]2C[C@@H](c3ccc(C(F)(F)F)cc3)CN(C(=O)N3CCS(=O)(=O)C3)C2)n1 | -4.52%
CS(=O)(=O)N1CCCC(NC(=O)[C@H](CCC2CCCCC2)NC(=O)c2ccc(CNC(=O)c3cnc4ccccn34)cc2)C1 (some centres unmarked) | -18.9%
N#CC1(c2ccccn2)CCN(Cc2cc(C(=O)N3CCCC3)c(=O)n3ccccc23)CC1 | 26.7%
NC(=O)c1ccc2nc(-c3ccc(C4(N)CCC4)cc3)c(-c3ccccc3)n2n1 | 32.7%
CC(=O)Nc1nc(CN2CCC[C@H](Cc3cc(C)nc(C)c3)C2)cs1 | 12.3%
CN(C)C(=O)c1sc2nc(N3CCC(S(C)(=O)=O)CC3)cc(C(F)(F)F)c2c1N | 40.6%
COc1cccc(NC(=O)c2nc3scc(CN(C)Cc4ccccc4)c3c(=O)[nH]2)c1 | 15.8%
NS(=O)(=O)c1cc(NC(=O)Cc2ccccc2)ccc1Oc1cccc(Cl)c1 | -1.77%
O=C(Nc1ccc(Oc2ccc(F)cc2)cc1)N1CCc2ncccc2[C@H]1c1ccc(F)cc1 | -3.56%
CCC(=NO)C(C)=Cc1ccc(F)c(C)c1 | 1.12%
O=C(Nc1cccnn1)N1CC(CC=Cc2cncc(Oc3ccc(C(F)(F)F)cn3)n2)C1 | -25%

Repeated from above (block 3):
Compound | viability
O=C1CCc2cc(OCCCCc3nnnn3C3CCCCC3)ccc2N1 | 99%
CCOC(=O)CCC(=O)O[C@H]1[C@H](O[C@@H]2[C@@H](C)[C@H](O[C@H]3C[C@@](C)(OC)[C@@H](O)[C@H](C)O3)[C@@H](C)C(=O)O[C@H](CC)[C@@](C)(O)[C@H](O)[C@@H](C)C(=O)[C@H](C)C[C@@]2(C)O)O[C@H](C)C[C@@H]1N(C)C | 101%
Cc1cc(-c2ccc(/N=N/c3ccc4c(S(=O)(=O)O)cc(S(=O)(=O)O)c(N)c4c3O)c(C)c2)ccc1/N=N/c1ccc2c(S(=O)(=O)O)cc(S(=O)(=O)O)c(N)c2c1O | 98.3%
